Measurements pooled from the literature.
± gives the spread as reported.
U2AF2: U2AF2 148-342 (Homo sapiens, UniProt P26368)
UniProt P26368, sequence (whole entry, looked up): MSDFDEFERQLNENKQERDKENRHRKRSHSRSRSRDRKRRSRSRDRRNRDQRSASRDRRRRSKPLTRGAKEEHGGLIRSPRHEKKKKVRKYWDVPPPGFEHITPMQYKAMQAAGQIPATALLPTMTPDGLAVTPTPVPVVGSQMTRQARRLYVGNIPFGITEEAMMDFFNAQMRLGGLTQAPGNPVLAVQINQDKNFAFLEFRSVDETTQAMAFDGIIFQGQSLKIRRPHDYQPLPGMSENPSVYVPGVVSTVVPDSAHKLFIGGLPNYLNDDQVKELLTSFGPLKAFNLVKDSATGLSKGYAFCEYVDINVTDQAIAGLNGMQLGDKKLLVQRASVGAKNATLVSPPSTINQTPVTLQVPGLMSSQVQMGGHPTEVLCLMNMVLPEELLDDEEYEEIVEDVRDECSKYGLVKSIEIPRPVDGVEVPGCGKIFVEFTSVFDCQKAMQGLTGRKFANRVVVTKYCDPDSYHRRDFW
B1: human hnRNP L; sequence looked up; chain MSRRLLPRAEKRRRRLEQRQQPDEQRRRSGAMVKMAAAGGGGGGGRYYGGGSEGGRAPKRLKTDNAGDQHGGGGGGGGGAGAAGGGGGGENYDDPHKTPASPVVHIRGLIDGVVEADLVEALQEFGPISYVVVMPKKRQALVEFEDVLGACNAVNYAADNQIYIAGHPAFVNYSTSQKISRPGDSDDSRSVNSVLLFTILNPIYSITTDVLYTICNPCGPVQRIVIFRKNGVQAMVEFDSVQSAQRAKASLNGADIYSGCCTLKIEYAKPTRLNVFKNDQDTWDYTNPNLSGQGDPGSNPNKRQRQPPLLGDHPAEYGGPHGGYHSHYHDEGYGPPPPHYEGRRMGPPVGGHRRGPSRYGPQYGHPPPPPPPPEYGPHADSPVLMVYGLDQSKMNCDRVFNVFCLYGNVEKVKFMKSKPGAAMVEMADGYAVDRAITHLNNNFMFGQKLNVCVSKQPAIMPGQSYGLEDGSCSYKDFSESRNNRFSTPEQAAKNRIQHPSNVLHFFNAPLEVTEENFFEICDELGVKRPSSVKVFSGKSERSSSGLLEWESKSDALETLGFLNHYQMKNPNGPYPYTLKLCFSTAQHAS
B2: adiponectin; sequence looked up; chain ETTTQGPGVLLPLPKGACTGWMAGIPGHPGHNGAPGRDGRDGTPGEKGEKGDPGLIGPKGDIGETGVPGAEGPRGFPGIQGRKGEPGEGAYVYRSAFSVGLETYVTIPNMPIRFTKIFYNQQNHYDGSTGKFHCNIPGLYYFAYHITVYMKDVKVSLFKKDKAMLFTYDQYQENNVDQASGSVLLHLEVGDQVWLQVYGEGERNGLYADNDNDSTFTGFLLYHDTN
B3: human histone deacetylase 6; sequence looked up; chain MTSTGQDSTTTRQRRSRQNPQSPPQDSSVTSKRNIKKGAVPRSIPNLAEVKKKGKMKKLGQAMEEDLIVGLQGMDLNLEAEALAGTGLVLDEQLNEFHCLWDDSFPEGPERLHAIKEQLIQEGLLDRCVSFQARFAEKEELMLVHSLEYIDLMETTQYMNEGELRVLADTYDSVYLHPNSYSCACLASGSVLRLVDAVLGAEIRNGMAIIRPPGHHAQHSLMDGYCMFNHVAVAARYAQQKHRIRRVLIVDWDVHHGQGTQFTFDQDPSVLYFSIHRYEQGRFWPHLKASNWSTTGFGQGQGYTINVPWNQVGMRDADYIAAFLHVLLPVALEFQPQLVLVAAGFDALQGDPKGEMAATPAGFAQLTHLLMGLAGGKLILSLEGGYNLRALAEGVSASLHTLLGDPCPMLESPGAPCRSAQASVSCALEALEPFWEVLVRSTETVERDNMEEDNVEESEEEGPWEPPVLPILTWPVLQSRTGLVYDQNMMNHCNLWDSHHPEVPQRILRIMCRLEELGLAGRCLTLTPRPATEAELLTCHSAEYVGHLRATEKMKTRELHRESSNFDSIYICPSTFACAQLATGAACRLVEAVLSGEVLNGAAVVRPPGHHAEQDAACGFCFFNSVAVAARHAQTISGHALRILIVDWDVHHGNGTQHMFEDDPSVLYVSLHRYDHGTFFPMGDEGASSQIGRAAGTGFTVNVAWNGPRMGDADYLAAWHRLVLPIAYEFNPELVLVSAGFDAARGDPLGGCQVSPEGYAHLTHLLMGLASGRIILILEGGYNLTSISESMAACTRSLLGDPPPLLTLPRPPLSGALASITETIQVHRRYWRSLRVMKVEDREGPSSSKLVTKKAPQPAKPRLAERMTTREKKVLEAGMGKVTSASFGEESTPGQTNSETAVVALTQDQPSEAATGGATLAQTISEAAIGGAMLGQTTSEEAVGGATPDQTTSEETVGGAILDQTTSEDAVGGATLGQTTSEEAVGGATLAQTTSEAAMEGATLDQTTSEEAPGGTELIQTPLASSTDHQTPPTSPVQGTTPQISPSTLIGSLRTLELGSESQGASESQAPGEENLLGEAAGGQDMADSMLMQGSRGLTDQAIFYAVTPLPWCPHLVAVCPIPAAGLDVTQPCGDCGTIQENWVCLSCYQVYCGRYINGHMLQHHGNSGHPLVLSYIDLSAWCYYCQAYVHHQALLDVKNIAHQNKFGEDMPHPH

proteasome subunit alpha-1 (human) — log2 fold change (CYB5R4 knockout human cells; PP4 interaction, 3xFLAG-PP4C IP-MS; concentration not given; relative to: CYB5R4 KO over parental): 0.29
LADPIPDDF — GFP-positive cells (Jurkat expressing engineered TCR; NFAT-eGFP reporter, fluorescence microscopy; peptide; concentration not given, HLA-A*01:01 on EL4 cells): 0.442%
epoetin alfa — EC50 (UT7/EPO; phosphorylation, agonist, refers to: phospho-STAT3; 10 min): 0.369 nM
B1 (human hnRNP L) — log2 fold change (CYB5R4 knockout human cells; PP4 interaction, 3xFLAG-PP4C IP-MS; concentration not given; relative to: CYB5R4 KO over parental): -0.73
YLEPIQLEY — GFP-positive cells (Jurkat expressing engineered TCR; NFAT-eGFP reporter, fluorescence microscopy; peptide; concentration not given, HLA-A*01:01 on EL4 cells): 0.506%
Peginesatide — phosphorylation (UT7/EPO; LC-MS/MS phosphoproteomics (GluC), refers to: p38beta (MAPK11) phospho-Tyr182; 10 nM, 15 min; relative to: vehicle): 3.1 fold
UGGAUUAGC (ssRNA) — Kd (U2AF2; sequencing of bound RNA; RNA; motif only): 8.05 µM
B2 (adiponectin) — mRNA level (HUVEC; real-time PCR, refers to: CXCL9; 15 µg/mL, 24 h, unit not given, together with: TNF-α and IFN-γ; relative to: stimulated untreated): 0.95 ± 0.16
UAUUUACUU (ssRNA) — Kd (U2AF2; sequencing of bound RNA; RNA; motif only): 16.2 µM
B3 (human histone deacetylase 6) — log2 fold change (CYB5R4 knockout human cells; PP4 interaction, 3xFLAG-PP4C IP-MS; concentration not given; relative to: CYB5R4 KO over parental): -0.08
methyl-β-cyclodextrin — reduction of PS-positive cells (HMC3; endocytosis, flow cytometry; 5 mM, 2 h pretreatment then 3 h, together with: FITC-PS 0.2 mg/mL): 8.2%
EADPIIDSY — GFP-positive cells (Jurkat NFAT-eGFP expressing engineered TCR; NFAT reporter gene; peptide; concentration not given, HLA-A*01:01 presentation): 1.66%
MTVCNASQRQAHAQATAVSL — selectivity ratio (H1155 lung large cell carcinoma; phage binding output/input; peptide; relative to: control phage): 2.2 ± 1.4
QVDPIGFLF — GFP-positive cells (Jurkat expressing engineered TCR; NFAT-eGFP reporter, fluorescence microscopy; peptide; concentration not given, HLA-A*01:01 on EL4 cells): 0.484%
PSMD2 (human) — log2 fold change (CYB5R4 knockout human cells; PP4 interaction, 3xFLAG-PP4C IP-MS; concentration not given; relative to: CYB5R4 KO over parental): -0.16
ECDPIGYEY — GFP-positive cells (Jurkat expressing engineered TCR; NFAT-eGFP reporter, fluorescence microscopy; peptide; concentration not given, HLA-A*01:01 on EL4 cells): 0.583%
human RGPD8 — log2 fold change (CYB5R4 knockout human cells; PP6 interaction, 3xFLAG-PP6C IP-MS; concentration not given; relative to: CYB5R4 KO over parental): 0.81
